Measured values collected from several papers.
Each line is one published result; not all experiments were run side by side.
Read-out: metabolic stability
Host: human

SMILES = CC12CC3(C)CC(C)(C1)CC(NC(=O)NC1CCC(Oc4ccc(C(=O)O)cc4)CC1)(C2)C3 (stereo not shown); system = liver microsomes; half-life = 0.0583 h
SMILES = O=C(NC1CC=C(c2cc3c(Nc4cc5ncsc5cc4F)ncnc3s2)CC1)NC1CC1 (racemic); system = liver microsomes; half-life = > 2 h
SMILES = Cc1nc(N[C@@H](C)c2ccc(-c3nc(C4CC4)no3)cc2)c2cc(C)oc2n1; system = liver microsomes; half-life = 0.767 h
SMILES = O=C(CCN1C(=O)CSc2ccccc21)Nc1nnc(-c2ccccn2)[nH]1; system = liver microsomes; half-life = 1.78 h
SMILES = NC1CC=C(c2cc3c(Nc4cc5ncsc5cc4F)ncnc3s2)CC1 (stereo not shown); system = liver microsomes; conditions = 1 µM; half-life = > 2 h
SMILES = CN1C(=O)C2(Nc3ccccc3C(=O)N2Cc2ccccc2)c2cc(Br)ccc21 (stereo not shown); system = liver microsomes; half-life = < 0.0383 h
SMILES = CNC(=O)C1CCN(c2ccccc2NC(=O)c2ccc(-c3c(C)ccc4[nH]ncc34)c(C)c2)CC1; system = liver microsomes; conditions = 2 µM; half-life = < 1.67 h
SMILES = O=C(O)c1ccc(/C=C2\SC(=S)N(Cc3cccc(C(F)(F)F)c3)C2=O)cc1; system = liver microsomes; conditions = 1 µM; half-life = > 2.42 h
SMILES = COc1cc(-c2nc3ccc(C(=O)NCCCN4CCN(c5ccccn5)CC4)cc3n2C2CCC2)cc(OC)c1OC; system = liver microsomes; half-life = 0.163 h
SMILES = CO[C@@H](C(N)=O)[C@H](NC(=O)c1ccc(NC(=O)c2ccc([N+](=O)[O-])cc2)cc1)C(=O)Nc1ccc(C(=O)Nc2ccc(C(=O)Nc3ccc(C(=O)O)cc3)c(O)c2OC(C)C)cc1; system = hepatocytes; half-life = > 6.67 h
SMILES = O=C(NC1CC=C(c2cc3c(Nc4cc5ncsc5cc4F)ncnc3s2)CC1)NC1CCCC1 (racemic); system = liver microsomes; half-life = > 2 h
SMILES = O=C1N[C@H](CO)Cc2cccc(c2)CCCOc2cccc1c2; system = hepatocytes; half-life = 0.167 h
SMILES = CCCNC(=O)NC1CC=C(c2cc3c(Nc4cc5ncsc5cc4F)ncnc3s2)CC1 (racemic); system = liver microsomes; half-life = > 2 h
SMILES = O=c1c(-c2cnn(-c3ccc(Cl)cc3)c2)c(C(F)(F)F)oc2c(O)c(O)ccc12; system = liver microsomes; half-life = > 5 h
SMILES = CC(C)(C)NC(=O)NC1CC=C(c2cc3c(Nc4cc5ncsc5cc4F)ncnc3s2)CC1 (racemic); system = liver microsomes; half-life = > 2 h
SMILES = CC(C)C[C@@H](CC(=O)N[C@@H](CO)C(=O)N1CCC[C@H]1C(=O)N[C@H](C(N)=O)[C@@H](C)O)NC(=O)[C@H](Cc1cccc2ccccc12)NC(=O)[C@H](CNC(=O)c1ccc2cc(F)ccc2c1)NC(=O)[C@H](CO)NC(=O)C1CCNCC1; system = liver S9; conditions = 3 µM, pH 7.4; half-life = 1.48 h
SMILES = [2H]c1c(NS(C)(=O)=O)c([2H])c2c(C(=O)c3ccc(OCCCN(CCCC)CCCC)cc3)c(CCCC)oc2c1[2H]; system = liver microsomes; conditions = 1 µM; half-life = 0.171 h
SMILES = CC(C)C(=O)N1CC=C(c2cc3c(Nc4cc5ncsc5cc4F)ncnc3s2)CC1; system = liver microsomes; half-life = > 2 h
SMILES = CC(C)(C)c1nc(-c2ccc(NC(=O)c3cccs3)cc2Cl)no1; system = liver microsomes; conditions = 1 µM, pH 7.4; half-life = ~1 h

Repeated from above:
SMILES = CNC(=O)C1CCN(c2ccccc2NC(=O)c2ccc(-c3c(C)ccc4[nH]ncc34)c(C)c2)CC1; system = liver microsomes; conditions = 2 µM; half-life = < 1.67 h
SMILES = CO[C@@H](C(N)=O)[C@H](NC(=O)c1ccc(NC(=O)c2ccc([N+](=O)[O-])cc2)cc1)C(=O)Nc1ccc(C(=O)Nc2ccc(C(=O)Nc3ccc(C(=O)O)cc3)c(O)c2OC(C)C)cc1; system = hepatocytes; half-life = > 6.67 h
SMILES = O=C(O)c1ccc(/C=C2\SC(=S)N(Cc3cccc(C(F)(F)F)c3)C2=O)cc1; system = liver microsomes; conditions = 1 µM; half-life = > 2.42 h
